Measurements gathered from unrelated publications.
Lines come from different studies, so protocols differ. In brackets after ≈: the same amount, converted by molar mass.
Chain of UniProt Q8NEV4 (whole entry, looked up): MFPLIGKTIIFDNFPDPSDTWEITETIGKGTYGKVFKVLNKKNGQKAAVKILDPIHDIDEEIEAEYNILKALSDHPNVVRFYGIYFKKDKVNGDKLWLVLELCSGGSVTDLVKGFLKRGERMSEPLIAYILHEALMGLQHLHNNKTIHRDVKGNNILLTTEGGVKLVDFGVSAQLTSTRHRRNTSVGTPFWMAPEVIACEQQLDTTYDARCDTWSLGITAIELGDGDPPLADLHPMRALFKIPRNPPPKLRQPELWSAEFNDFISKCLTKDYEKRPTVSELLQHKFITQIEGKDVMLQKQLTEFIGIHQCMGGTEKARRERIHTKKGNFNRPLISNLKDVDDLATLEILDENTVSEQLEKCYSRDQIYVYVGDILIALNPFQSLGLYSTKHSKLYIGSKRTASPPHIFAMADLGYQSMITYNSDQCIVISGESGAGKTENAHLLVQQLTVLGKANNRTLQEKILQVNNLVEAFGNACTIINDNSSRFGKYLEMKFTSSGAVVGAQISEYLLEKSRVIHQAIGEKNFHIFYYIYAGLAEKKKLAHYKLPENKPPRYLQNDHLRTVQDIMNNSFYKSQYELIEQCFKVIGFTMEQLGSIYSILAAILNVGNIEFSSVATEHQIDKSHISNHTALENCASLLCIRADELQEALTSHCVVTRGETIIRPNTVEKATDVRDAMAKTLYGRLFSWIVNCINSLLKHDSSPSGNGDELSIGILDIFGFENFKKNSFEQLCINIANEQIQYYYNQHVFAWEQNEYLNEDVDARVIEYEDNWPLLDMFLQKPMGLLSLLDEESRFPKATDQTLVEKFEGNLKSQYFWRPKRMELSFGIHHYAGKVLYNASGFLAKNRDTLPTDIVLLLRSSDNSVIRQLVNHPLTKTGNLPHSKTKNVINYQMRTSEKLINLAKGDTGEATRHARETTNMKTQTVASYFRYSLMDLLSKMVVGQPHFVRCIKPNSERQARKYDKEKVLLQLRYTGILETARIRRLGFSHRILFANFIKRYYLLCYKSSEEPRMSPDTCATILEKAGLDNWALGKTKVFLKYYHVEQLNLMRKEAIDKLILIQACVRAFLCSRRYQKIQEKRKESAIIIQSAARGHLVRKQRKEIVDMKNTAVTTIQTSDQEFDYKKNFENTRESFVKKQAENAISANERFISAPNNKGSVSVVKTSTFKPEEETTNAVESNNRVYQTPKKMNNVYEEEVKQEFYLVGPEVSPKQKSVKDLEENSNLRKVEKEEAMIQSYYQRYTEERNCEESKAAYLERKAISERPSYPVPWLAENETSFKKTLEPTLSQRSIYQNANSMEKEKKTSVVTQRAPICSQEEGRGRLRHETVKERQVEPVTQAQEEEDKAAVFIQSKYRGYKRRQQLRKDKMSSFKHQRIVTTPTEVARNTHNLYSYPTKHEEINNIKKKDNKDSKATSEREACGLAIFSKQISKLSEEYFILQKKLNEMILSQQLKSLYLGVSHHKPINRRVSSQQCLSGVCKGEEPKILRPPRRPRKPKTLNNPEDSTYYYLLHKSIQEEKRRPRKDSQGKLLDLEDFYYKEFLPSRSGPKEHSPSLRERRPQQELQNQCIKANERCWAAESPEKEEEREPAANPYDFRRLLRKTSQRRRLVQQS
Chain of UniProt Q9H2X6 (whole entry, looked up): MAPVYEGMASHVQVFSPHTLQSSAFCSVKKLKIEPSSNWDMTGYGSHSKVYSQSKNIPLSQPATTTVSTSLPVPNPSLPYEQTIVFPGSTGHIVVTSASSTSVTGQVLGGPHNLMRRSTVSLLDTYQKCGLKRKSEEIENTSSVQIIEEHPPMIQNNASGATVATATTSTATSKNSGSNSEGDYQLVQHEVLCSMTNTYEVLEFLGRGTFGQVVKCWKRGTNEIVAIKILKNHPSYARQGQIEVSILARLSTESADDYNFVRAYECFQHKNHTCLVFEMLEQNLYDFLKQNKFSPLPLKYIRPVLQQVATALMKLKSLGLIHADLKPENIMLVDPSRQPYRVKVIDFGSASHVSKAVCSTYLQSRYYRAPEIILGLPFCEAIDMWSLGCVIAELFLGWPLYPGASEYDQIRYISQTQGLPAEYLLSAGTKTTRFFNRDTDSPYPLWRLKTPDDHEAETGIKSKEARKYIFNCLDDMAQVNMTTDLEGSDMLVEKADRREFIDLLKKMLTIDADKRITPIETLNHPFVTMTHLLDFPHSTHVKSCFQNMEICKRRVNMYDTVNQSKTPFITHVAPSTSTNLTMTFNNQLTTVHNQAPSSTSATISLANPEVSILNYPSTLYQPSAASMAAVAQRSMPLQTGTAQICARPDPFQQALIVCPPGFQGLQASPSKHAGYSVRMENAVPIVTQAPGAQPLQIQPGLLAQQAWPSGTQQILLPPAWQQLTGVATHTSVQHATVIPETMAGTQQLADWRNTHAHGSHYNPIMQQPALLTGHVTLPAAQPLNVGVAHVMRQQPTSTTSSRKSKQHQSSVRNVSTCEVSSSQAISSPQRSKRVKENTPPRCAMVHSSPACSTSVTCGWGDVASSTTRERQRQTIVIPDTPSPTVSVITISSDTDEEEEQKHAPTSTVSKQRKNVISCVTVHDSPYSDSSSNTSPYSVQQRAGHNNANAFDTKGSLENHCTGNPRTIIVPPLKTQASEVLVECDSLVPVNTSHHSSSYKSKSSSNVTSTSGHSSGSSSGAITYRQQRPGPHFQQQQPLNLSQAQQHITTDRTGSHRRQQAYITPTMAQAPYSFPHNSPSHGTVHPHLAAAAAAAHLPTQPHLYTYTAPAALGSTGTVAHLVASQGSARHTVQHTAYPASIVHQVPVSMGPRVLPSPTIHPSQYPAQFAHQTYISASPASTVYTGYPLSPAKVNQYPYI
Chain of UniProt Q05655 (whole entry, looked up): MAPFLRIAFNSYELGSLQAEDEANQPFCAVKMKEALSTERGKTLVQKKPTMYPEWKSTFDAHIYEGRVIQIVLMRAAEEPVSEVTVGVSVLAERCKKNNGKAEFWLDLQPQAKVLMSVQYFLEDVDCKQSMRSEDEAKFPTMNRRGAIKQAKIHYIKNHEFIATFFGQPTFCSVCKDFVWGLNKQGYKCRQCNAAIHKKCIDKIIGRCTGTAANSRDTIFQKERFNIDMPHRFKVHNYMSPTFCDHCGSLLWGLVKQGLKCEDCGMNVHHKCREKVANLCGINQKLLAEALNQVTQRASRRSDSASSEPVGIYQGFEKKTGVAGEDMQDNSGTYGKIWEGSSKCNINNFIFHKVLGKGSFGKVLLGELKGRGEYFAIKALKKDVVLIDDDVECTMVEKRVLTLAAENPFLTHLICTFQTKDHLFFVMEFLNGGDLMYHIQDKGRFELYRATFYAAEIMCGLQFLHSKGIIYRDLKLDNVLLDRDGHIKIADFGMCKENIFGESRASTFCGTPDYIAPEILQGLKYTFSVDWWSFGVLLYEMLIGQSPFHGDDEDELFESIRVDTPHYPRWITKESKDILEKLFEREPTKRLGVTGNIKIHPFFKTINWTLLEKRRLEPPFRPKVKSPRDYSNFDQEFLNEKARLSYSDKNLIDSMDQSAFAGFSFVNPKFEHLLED
Chain of UniProt Q6XUX3 (whole entry, looked up): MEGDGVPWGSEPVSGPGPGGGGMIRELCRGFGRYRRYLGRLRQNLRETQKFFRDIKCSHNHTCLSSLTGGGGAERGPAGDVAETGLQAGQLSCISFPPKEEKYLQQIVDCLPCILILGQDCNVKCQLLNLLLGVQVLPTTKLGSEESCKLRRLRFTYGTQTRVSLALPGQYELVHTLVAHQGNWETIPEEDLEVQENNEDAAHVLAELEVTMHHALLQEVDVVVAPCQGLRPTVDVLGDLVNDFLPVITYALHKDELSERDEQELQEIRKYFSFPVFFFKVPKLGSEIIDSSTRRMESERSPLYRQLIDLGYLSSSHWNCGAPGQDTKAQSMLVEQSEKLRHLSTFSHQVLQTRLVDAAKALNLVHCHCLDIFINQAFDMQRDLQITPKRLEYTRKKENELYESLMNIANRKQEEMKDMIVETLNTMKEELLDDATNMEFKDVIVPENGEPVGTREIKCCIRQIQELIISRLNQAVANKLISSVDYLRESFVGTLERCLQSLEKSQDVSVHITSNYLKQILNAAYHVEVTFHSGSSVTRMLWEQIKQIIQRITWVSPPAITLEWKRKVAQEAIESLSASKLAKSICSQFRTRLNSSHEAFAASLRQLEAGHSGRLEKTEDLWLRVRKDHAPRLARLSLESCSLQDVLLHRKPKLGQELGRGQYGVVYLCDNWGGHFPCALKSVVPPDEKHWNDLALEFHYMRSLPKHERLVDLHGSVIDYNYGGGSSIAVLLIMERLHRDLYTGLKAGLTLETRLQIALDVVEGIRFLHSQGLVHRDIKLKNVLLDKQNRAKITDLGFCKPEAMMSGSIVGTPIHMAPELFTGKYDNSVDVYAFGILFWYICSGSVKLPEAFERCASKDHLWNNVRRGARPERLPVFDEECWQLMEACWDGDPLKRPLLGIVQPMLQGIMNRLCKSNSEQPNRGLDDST

For `Nc1ncc(-c2nc(N3CCOCC3)nc(N3CCOCC3)n2)c(C(F)F)n1`, the remaining binding was 92% (Myosin-IIIa (MYO3A, Homo sapiens, UniProt Q8NEV4); binding, competition with immobilised ligand; 10 µM).
`CC[C@H](C)[C@@H]1NC(=O)[C@H](CO)NC(=O)[C@H](C(C)C)NC(=O)[C@H](CC(C)C)NC(=O)[C@H](CC(C)C)NC(=O)[C@H]2CCCN2C(=O)[C@@H](CC(C)C)NC(=O)CNC(=O)[C@H]2CCCN2C(=O)[C@@H](Cc2ccc(O)cc2)NC1=O` gave a solubility of 692 µM (≈ 729 µg/mL) (aqueous buffer; 18 h, pH 7.4).
`Cc1nn(C)cc1-c1nc2c(N3CCN(Cc4ccc(Cl)cc4)CC3)c(Cl)cnc2[nH]1` gave a remaining binding of 100% (PRKCD (Homo sapiens, UniProt Q05655); binding, competition with immobilised ligand; 1 µM).
For `CC(C)(N)CNC(=O)O[C@@H]1CCC[C@]2(C1)OOC1(O2)C2CC3CC(C2)CC1C3` (stereo partly drawn), the half-life was 43.4 min (male CD-1 mouse, plasma; intravenous, 3 mg/kg).
The compound remaining of `CC(C)C[C@H](NC(=O)[C@H](Cc1ccccc1)NC(=O)[C@H](Cc1ccccc1)NC(=O)Cc1ccc(-c2ccccc2)cc1)C(=O)N[C@@H](CCCCN)C(=O)N[C@@H](CCCNC(=N)N)C(=O)N[C@H](C(=O)N[C@@H](Cc1c[nH]c2ccccc12)C(=O)N[C@@H](CCCCN)C(=O)N[C@@H](CCCNC(=N)N)C(=O)O)C(C)C` is reported as 16.9% (metabolic stability; rat, liver microsomes; 45 min).
`CCCC[C@H](NC(C)=O)C(=O)N[C@@H](C)C(=O)N[C@@H](Cc1c[nH]cn1)C(=O)N[C@@H](Cc1ccccc1)C(=O)N[C@@H](CCCNC(=N)N)C(=O)N[C@H](Cc1c[nH]c2ccccc12)C(=O)N[C@@H](CC(=O)O)C(=O)N[C@@H](CCCNC(=N)N)C(=O)N[C@@H](Cc1ccccc1)C(=O)N[C@@H](C(=O)N1CCC[C@@H]1C(N)=O)C(C)C` gave a half-life of 134 min (male cynomolgus monkey, plasma; subcutaneous, 8 mg/kg).
With `N=C(N)NCCC[C@@H](NC(=O)[C@@H](N)Cc1ccccc1)C(=O)N[C@@H](Cc1ccccc1)C(=O)N[C@@H](CCCCN)C(N)=O` the Tmax was 37.2 min (human, plasma; subcutaneous, 5 mg, patients).
`C/C=C1/CN2CC[C@@]34c5cc(O)ccc5N(C)[C@]35OC[C@@]4(C(=O)OC)[C@H]1C[C@H]25` has a clearance of 60 mL/min/kg (male Sprague-Dawley rat, plasma; intravenous, 1 mg/kg).
For `[2H]c1c([2H])c([C@]2([2H])CCCN2C(=O)C(C)(C)Oc2ccc3cn[nH]c3c2)c([2H])c([2H])c1C([2H])([2H])[2H]`, the remaining binding was 87% (HIPK2 (Homo sapiens, UniProt Q9H2X6); binding, competition with immobilised ligand; 1 µM).
With `CC[C@H](C)[C@H]1C(=O)N[C@@H](CC(C)C)C(=O)N2CCC[C@H]2C(=O)N2CCC[C@@H]2C(=O)NCC(=O)N[C@@H](CC(C)C)C(=O)N[C@@H](CC(C)C)C(=O)N[C@@H](C)C(=O)N[C@@H](CO)C(=O)N[C@H]([C@H](C)O)C(=O)N[C@H](Cc2ccc(O)cc2)C(=O)N1C` the solubility was 759 µM (≈ 865 µg/mL) (aqueous buffer; 18 h, pH 7.4).
`N.N.[Cl][Pt][Cl]` has an IC50 of 300 nM (SU-DHL-1; cell growth or viability, ATP luminescence; 72 h).
The remaining binding of `COc1ncccc1-c1cnn2ccc(N3CCN(C(=O)OC(C)C)CC3)nc12` is reported as 99% (DSTYK (Homo sapiens, UniProt Q6XUX3); binding, competition with immobilised ligand; 1 µM).
`CC[C@H](C)[C@H]1C(=O)N[C@H]([C@H](C)O)C(=O)NCC(=O)N[C@@H](CC(C)C)C(=O)N2CCC[C@H]2C(=O)N[C@@H](Cc2ccc(O)cc2)C(=O)N[C@H](CC(C)C)C(=O)N2CCC[C@@H]2C(=O)NCC(=O)N[C@@H](Cc2ccc(O)cc2)C(=O)N1C` has a thermodynamic solubility of 936 µM (≈ 1020 µg/mL) (aqueous buffer; 18 h, pH 7.4).
With `CCCC[C@@H]1NC(=O)[C@H](Cc2ccc(O)cc2)NC(=O)[C@@H]2CCCN2C(=O)[C@H](CC(=O)O)NC(=O)[C@H](C)NC(=O)[C@H](Cc2ccccc2)NC(=O)[C@@H]2CSCCC(=O)N3CN(CN(C3)C(=O)CCSC[C@H](NC(C)=O)C(=O)N[C@@H](CC(C)(C)C)C(=O)N3CCC[C@H]3C(=O)N[C@@H](CCC(=O)O)C(=O)N[C@H](CCCCNC(=O)CCc3cn(CCOCCOCCOCCN(CCOCCOCCOCCC(=O)N[C@H]4CSCCC(=O)N5CN6CN(C5)C(=O)CCSC[C@H](NC(=O)[C@@H](CC(=O)O)NC(=O)[C@H](Cc5cccc7ccccc57)NC(=O)[C@@H]5CCCN5C4=O)C(=O)N[C@@H](CCSC)C(=O)N[C@@H](CCCCNC(=N)N)C(=O)N[C@@H](CC(=O)O)C(=O)N[C@@H](Cc4c[nH]c5ccccc45)C(=O)N[C@@H](CO)C(=O)N[C@@H]([C@@H](C)O)C(=O)N4CCC[C@H]4C(=O)N4C[C@H](O)C[C@H]4C(=O)N[C@@H](Cc4c[nH]c5ccccc45)C(=O)N[C@H](C(N)=O)CSCCC6=O)CCOCCOCCOCCn4cc(CCC(=O)NCCCC[C@H]5NC(=O)[C@H](CCC(=O)O)NC(=O)[C@@H]6CCCN6C(=O)[C@H](CC(C)(C)C)NC(=O)[C@@H](NC(C)=O)CSCCC(=O)N6CN7CN(C6)C(=O)CCSC[C@H](NC(=O)[C@H](Cc6ccc(O)cc6)NC(=O)[C@@H]6CCCN6C5=O)C(=O)N[C@@H](Cc5ccccc5)C(=O)N[C@@H](C)C(=O)N[C@@H](CC(=O)O)C(=O)N5CCC[C@H]5C(=O)N[C@@H](Cc5ccc(O)cc5)C(=O)N[C@@H](CCCC)C(=O)N[C@H](C(N)=O)CSCCC7=O)nn4)nn3)C(=O)N3CCC[C@H]3C(=O)N[C@@H](Cc3ccc(O)cc3)C(=O)N2)C(=O)CCSC[C@@H](C(N)=O)NC1=O` the Vd was 2.2 L/kg (rat, plasma; intravenous, 2 mg/kg).
For `N=c1c2c(-c3ccccc3)c(-c3ccccc3)n(Cc3ccccc3)c2ncn1[C@H]1CC[C@H](O)CC1`, the Vd was 9.8 L/kg (male Sprague-Dawley rat, plasma; intravenous, 2 mg/kg, single dose).

For quick reference, copied from above:
`CCCC[C@H](NC(C)=O)C(=O)N[C@@H](C)C(=O)N[C@@H](Cc1c[nH]cn1)C(=O)N[C@@H](Cc1ccccc1)C(=O)N[C@@H](CCCNC(=N)N)C(=O)N[C@H](Cc1c[nH]c2ccccc12)C(=O)N[C@@H](CC(=O)O)C(=O)N[C@@H](CCCNC(=N)N)C(=O)N[C@@H](Cc1ccccc1)C(=O)N[C@@H](C(=O)N1CCC[C@@H]1C(N)=O)C(C)C` gave a half-life of 134 min (male cynomolgus monkey, plasma; subcutaneous, 8 mg/kg).
`C/C=C1/CN2CC[C@@]34c5cc(O)ccc5N(C)[C@]35OC[C@@]4(C(=O)OC)[C@H]1C[C@H]25` has a clearance of 60 mL/min/kg (male Sprague-Dawley rat, plasma; intravenous, 1 mg/kg).
